# Measured values gathered from unrelated publications.
# Each numbered part is a random draw from the data of one study; scales do not carry over between parts. Values joined by “and” are separate records of one study, mostly repeats; a detail may differ.
# Sequence of UniProt P08173 (whole entry, looked up): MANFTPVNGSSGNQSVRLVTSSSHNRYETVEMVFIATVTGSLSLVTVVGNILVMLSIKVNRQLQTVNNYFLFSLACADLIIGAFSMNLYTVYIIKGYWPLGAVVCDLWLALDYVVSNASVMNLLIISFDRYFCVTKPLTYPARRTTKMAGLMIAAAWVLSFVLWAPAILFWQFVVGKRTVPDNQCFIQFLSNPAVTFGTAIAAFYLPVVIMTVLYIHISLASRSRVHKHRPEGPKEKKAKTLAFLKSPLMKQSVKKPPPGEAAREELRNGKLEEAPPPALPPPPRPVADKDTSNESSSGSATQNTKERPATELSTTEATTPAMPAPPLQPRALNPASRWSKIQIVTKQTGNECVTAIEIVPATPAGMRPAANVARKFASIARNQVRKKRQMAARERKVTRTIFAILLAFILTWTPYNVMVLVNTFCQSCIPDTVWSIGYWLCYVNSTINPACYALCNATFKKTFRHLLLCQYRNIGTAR
# Sequence of UniProt P18089 (whole entry, looked up): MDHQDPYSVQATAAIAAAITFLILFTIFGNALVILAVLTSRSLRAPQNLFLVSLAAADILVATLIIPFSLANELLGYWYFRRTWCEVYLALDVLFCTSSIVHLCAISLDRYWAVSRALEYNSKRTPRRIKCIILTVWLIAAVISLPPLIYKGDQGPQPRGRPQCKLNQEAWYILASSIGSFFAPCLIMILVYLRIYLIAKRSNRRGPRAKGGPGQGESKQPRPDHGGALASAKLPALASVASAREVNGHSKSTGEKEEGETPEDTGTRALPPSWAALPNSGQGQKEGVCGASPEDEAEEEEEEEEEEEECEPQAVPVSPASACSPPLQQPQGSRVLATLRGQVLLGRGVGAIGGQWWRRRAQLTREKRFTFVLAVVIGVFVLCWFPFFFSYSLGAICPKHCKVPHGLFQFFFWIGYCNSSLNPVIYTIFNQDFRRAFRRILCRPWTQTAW
# Sequence of UniProt P35348 (whole entry, looked up): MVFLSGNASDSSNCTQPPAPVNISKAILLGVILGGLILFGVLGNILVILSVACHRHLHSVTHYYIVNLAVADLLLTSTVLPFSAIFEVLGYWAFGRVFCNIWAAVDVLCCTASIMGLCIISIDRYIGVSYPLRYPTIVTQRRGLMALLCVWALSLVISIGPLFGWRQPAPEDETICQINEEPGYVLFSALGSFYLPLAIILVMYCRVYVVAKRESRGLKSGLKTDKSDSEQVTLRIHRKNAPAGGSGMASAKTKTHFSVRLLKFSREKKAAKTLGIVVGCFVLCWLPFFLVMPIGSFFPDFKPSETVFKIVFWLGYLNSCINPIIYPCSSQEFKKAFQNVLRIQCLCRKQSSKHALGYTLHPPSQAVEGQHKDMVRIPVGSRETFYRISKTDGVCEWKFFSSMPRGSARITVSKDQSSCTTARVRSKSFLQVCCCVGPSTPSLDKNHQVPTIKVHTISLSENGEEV
# Sequence of UniProt O14920 (whole entry, looked up): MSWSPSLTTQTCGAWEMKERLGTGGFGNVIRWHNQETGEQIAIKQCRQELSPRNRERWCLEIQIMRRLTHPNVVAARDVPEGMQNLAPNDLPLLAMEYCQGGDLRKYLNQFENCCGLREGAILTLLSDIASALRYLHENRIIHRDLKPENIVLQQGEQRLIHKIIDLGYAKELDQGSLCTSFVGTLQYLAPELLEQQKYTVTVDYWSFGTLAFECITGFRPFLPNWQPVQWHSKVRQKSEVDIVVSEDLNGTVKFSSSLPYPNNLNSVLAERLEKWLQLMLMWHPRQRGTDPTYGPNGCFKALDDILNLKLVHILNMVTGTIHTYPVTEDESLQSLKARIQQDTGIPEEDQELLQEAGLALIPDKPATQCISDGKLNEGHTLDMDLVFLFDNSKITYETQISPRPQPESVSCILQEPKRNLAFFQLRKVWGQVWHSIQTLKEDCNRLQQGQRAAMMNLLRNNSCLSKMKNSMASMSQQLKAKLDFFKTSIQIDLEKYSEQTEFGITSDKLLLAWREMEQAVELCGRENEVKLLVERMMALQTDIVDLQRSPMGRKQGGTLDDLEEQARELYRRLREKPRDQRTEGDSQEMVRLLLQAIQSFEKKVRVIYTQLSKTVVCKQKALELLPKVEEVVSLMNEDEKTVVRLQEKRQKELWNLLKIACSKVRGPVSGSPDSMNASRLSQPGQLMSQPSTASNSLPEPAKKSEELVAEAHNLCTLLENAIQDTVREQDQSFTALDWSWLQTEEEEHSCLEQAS
# Sequence of UniProt P25021 (whole entry, looked up): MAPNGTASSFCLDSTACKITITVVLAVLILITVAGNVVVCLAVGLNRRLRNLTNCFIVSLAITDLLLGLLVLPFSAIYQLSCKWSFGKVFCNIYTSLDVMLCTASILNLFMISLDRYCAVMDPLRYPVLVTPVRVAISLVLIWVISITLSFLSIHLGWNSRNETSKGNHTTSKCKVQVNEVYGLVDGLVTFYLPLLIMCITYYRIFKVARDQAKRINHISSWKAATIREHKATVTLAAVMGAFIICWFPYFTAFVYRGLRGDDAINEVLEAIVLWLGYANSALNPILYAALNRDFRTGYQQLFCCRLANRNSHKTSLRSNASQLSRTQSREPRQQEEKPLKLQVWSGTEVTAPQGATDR

# Study 1
# Target: DNA polymerase theta, ATPase domain (POLQ, Homo sapiens, UniProt O75417)
# Sequence of UniProt O75417 (whole entry, unmodified, looked up): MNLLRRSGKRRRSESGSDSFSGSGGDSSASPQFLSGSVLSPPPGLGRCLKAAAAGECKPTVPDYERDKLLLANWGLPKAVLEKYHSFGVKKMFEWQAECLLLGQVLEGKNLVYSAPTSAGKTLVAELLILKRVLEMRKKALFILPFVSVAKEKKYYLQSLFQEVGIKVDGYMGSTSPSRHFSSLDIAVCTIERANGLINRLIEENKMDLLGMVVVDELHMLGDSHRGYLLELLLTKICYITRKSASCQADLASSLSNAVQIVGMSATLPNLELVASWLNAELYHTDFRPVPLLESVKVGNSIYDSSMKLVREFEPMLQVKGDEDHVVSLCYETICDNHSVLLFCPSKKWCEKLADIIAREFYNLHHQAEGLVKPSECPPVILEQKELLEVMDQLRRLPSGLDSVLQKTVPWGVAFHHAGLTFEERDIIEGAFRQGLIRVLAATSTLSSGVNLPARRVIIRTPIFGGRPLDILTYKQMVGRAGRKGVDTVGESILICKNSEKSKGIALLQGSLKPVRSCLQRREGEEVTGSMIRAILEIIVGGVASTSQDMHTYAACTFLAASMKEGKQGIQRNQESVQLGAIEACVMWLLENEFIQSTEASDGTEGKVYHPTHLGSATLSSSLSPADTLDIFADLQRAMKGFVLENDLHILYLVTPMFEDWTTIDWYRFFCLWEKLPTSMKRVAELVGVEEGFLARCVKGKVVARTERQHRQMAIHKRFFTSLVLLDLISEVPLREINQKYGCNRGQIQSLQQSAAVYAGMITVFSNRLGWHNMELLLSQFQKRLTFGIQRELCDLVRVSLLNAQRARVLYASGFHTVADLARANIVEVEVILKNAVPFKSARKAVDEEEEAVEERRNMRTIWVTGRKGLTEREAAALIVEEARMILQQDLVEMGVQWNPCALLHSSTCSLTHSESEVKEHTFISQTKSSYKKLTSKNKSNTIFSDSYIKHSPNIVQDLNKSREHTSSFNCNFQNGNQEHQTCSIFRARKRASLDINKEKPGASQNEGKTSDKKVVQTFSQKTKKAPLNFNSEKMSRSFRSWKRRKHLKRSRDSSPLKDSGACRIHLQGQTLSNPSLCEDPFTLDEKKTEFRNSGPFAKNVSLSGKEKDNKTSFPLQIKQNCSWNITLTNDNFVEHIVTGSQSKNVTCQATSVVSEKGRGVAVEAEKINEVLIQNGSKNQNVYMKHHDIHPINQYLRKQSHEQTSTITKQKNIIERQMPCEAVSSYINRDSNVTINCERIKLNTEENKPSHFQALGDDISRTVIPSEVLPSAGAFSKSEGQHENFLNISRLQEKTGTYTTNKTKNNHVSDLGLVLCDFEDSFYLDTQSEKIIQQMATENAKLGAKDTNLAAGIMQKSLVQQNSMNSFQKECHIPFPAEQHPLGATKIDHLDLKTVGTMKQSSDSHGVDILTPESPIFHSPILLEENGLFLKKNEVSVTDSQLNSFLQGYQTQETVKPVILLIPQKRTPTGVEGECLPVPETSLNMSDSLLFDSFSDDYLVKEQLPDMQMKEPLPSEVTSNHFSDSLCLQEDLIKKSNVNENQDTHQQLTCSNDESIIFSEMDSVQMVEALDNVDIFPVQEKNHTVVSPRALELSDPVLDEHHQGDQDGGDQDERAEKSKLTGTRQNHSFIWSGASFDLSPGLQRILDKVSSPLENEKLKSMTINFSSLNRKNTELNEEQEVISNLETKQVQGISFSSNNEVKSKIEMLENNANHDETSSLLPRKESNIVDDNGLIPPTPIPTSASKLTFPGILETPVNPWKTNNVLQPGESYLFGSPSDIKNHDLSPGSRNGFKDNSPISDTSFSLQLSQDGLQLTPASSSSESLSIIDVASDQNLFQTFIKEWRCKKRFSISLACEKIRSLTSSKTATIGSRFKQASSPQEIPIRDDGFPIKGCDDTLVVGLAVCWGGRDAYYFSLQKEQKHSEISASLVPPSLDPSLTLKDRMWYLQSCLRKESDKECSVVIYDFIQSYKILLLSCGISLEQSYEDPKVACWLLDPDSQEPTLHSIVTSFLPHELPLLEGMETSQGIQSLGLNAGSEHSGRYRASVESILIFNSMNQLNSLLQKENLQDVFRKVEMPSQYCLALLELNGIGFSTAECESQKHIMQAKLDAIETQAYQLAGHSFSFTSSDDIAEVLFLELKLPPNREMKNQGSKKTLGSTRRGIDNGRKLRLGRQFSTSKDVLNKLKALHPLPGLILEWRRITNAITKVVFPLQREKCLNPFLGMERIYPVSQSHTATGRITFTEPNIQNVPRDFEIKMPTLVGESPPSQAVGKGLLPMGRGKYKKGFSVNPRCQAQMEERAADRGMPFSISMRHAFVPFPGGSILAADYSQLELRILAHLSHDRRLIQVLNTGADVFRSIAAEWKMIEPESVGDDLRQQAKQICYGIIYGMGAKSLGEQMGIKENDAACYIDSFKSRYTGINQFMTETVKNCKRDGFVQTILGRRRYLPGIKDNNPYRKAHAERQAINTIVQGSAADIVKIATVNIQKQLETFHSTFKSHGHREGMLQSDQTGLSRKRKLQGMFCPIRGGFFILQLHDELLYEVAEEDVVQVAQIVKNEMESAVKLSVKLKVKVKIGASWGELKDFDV
# Read-out: enzyme activity
# Mode: inhibitor
# Concentration: 77 µM
# Reference: untreated
SMILES,remaining activity
C#C[C@]1(O)CC[C@H]2[C@@H]3CCc4cc(OC)ccc4[C@H]3CC[C@@]21C,104% and 101%
Cc1c(NC(C)C)c(=O)n(-c2ccccc2)n1C,94%
CCOC(=O)Oc1c(OC)cc(C(=O)O[C@@H]2C[C@@H]3CN4CCc5c([nH]c6cc(OC)ccc56)[C@H]4C[C@@H]3[C@H](C(=O)OC)[C@H]2OC)cc1OC,100%
COc1cc2c(CCNC(C)=O)c[nH]c2cc1Cl,114%
O=C(O)CCCC[C@@H]1SC[C@@H]2NC(=O)N[C@@H]21,95.2% and 107%

# Study 2
# SMILES: O=C(Nc1cnn(-c2csc(C(=O)NC3COC3)c2)c1)Nc1c(F)cccc1Cl
# Concentration: 5 µM
target,read-out,mode,method,reference,remaining activity
"Cyclin-dependent kinase 2, with cyclin E (CDK2, Homo sapiens, UniProt P24941)",enzyme activity,,,untreated control,93.3%
"SRPK2 (Homo sapiens, UniProt P78362)",enzyme activity,,,untreated control,93.8%
"RPS6KA2 (Homo sapiens, UniProt Q15349)",kinase activity,,kinase panel profiling,,90.1%
"MAPK12 (Homo sapiens, UniProt P53778)",enzyme activity,,,untreated control,97.5%
"PRKACB (Homo sapiens, UniProt P22694)",enzyme activity,,,untreated control,86.4%
"IKBKB (Homo sapiens, UniProt O14920)",enzyme activity,,,untreated control,94.1%
"EPHA8 (Homo sapiens, UniProt P29322)",enzyme activity,,,untreated control,92.7%
"EPHB3 (Homo sapiens, UniProt P54753)",enzyme activity,,,untreated control,95.9%
"LTK (Homo sapiens, UniProt P29376)",enzyme activity,,,untreated control,91.3%
"Myosin-IIIb (MYO3B, Homo sapiens, UniProt Q8WXR4)",enzyme activity,inhibitor,,,95.6%

# Study 3
# Compound: Cc1cc2c(-c3ccco3)cnc(N[C@H]3CCN(C)C[C@@H]3C(=O)NC3CCCCC3)c2[nH]c1=O
# Concentration: 10 µM
target,read-out,method,inhibition [%]
"ADRB1 (Homo sapiens, UniProt P08588)",ligand displacement,,2.98
"DRD1 (Homo sapiens, UniProt P21728)",ligand displacement,,21.2
"HTR1D (Homo sapiens, UniProt P28221)",cell-free assay,,33.1
"ADRB3 (Homo sapiens, UniProt P13945)",ligand displacement,,35.1
"HRH3 (Homo sapiens, UniProt Q9Y5N1)",ligand displacement,,-2.09
"ADRA2B (Homo sapiens, UniProt P18089)",ligand displacement,,28.5
"ADRA1A (Homo sapiens, UniProt P35348)",ligand displacement,,10.1
"HTR1E (Homo sapiens, UniProt P28566)",cell-free assay,,9.79
"HRH2 (Homo sapiens, UniProt P25021)",ligand displacement,,21.6
"DRD2 (Homo sapiens, UniProt P14416)",ligand displacement,,-10.9
"CHRM4 (Homo sapiens, UniProt P08173)",ligand displacement,,-3
"DRD3 (Homo sapiens, UniProt P35462)",ligand displacement,,15.5
"HTR1B (Homo sapiens, UniProt P28222)",binding,radioligand binding,1.93

# Study 4
# SMILES: CC(=O)N[C@@H](Cc1c[nH]c2ccccc12)C(=O)N[C@@H](CCC(=O)C=[N+]=[N-])C(=O)OC(C)C
# Method: UPLC-MS/MS metabolomics
# Host: C57BL/6 CES1-/- mice, EL4 tumour
# Sample: EL4 tumour
# Route: subcutaneous
# Dose: 0.3 mg/kg/day DON equivalent
# Time: 5 days
# Notes: normalised to tissue mass
refers to,peak intensity
NAD+,188000 a.u. and 173000 a.u. and 200000 a.u. and 54300 a.u. and 193000 a.u. and 110000 a.u.
N6-methyllysine,2.26e+07 a.u. and 2.35e+07 a.u. and 3.72e+07 a.u. and 2.08e+07 a.u. and 3.64e+07 a.u. and 3.87e+07 a.u.
UDP-N-acetylglucosamine/galactosamine,2.45e+07 a.u. and 2.92e+07 a.u. and 3.05e+07 a.u. and 9.81e+06 a.u. and 2.09e+07 a.u. and 9.56e+06 a.u.
S-lactoylglutathione,539000 a.u. and 622000 a.u. and 924000 a.u. and 1.35e+06 a.u.
N2-acetyllysine,355000 a.u. and 178000 a.u. and 232000 a.u. and 195000 a.u.
S-methylglutathione,187000 a.u. and 573000 a.u. and 124000 a.u. and 802000 a.u. and 719000 a.u. and 721000 a.u.
acetylphosphate,5.78e+06 a.u. and 4.75e+06 a.u. and 4.12e+06 a.u. and 5.89e+06 a.u. and 6.88e+06 a.u. and 6.14e+06 a.u.

# Excerpt of the above (study 2):
target,read-out,mode,method,reference,remaining activity
"IKBKB (Homo sapiens, UniProt O14920)",enzyme activity,,,untreated control,94.1%
"EPHA8 (Homo sapiens, UniProt P29322)",enzyme activity,,,untreated control,92.7%
"EPHB3 (Homo sapiens, UniProt P54753)",enzyme activity,,,untreated control,95.9%
"LTK (Homo sapiens, UniProt P29376)",enzyme activity,,,untreated control,91.3%
"Myosin-IIIb (MYO3B, Homo sapiens, UniProt Q8WXR4)",enzyme activity,inhibitor,,,95.6%
